# Measured values gathered from unrelated publications.
# Values joined by “and” are separate records of one study, mostly repeats; a detail may differ. Numbers after ± are the reported error.
SMILES,target or system,test,test system,conditions,scale,endpoint,value
CN(c1ccc(NC(=O)Nc2ccc(OC(F)(F)F)cc2)cc1)c1ccnc(Nc2cccc(S(N)(=O)=O)c2)n1,Trypanosoma brucei,,,unit not given,baseline: pEC50 T. brucei minus pTC50 HepG2,selectivity,1.1
O=C(CO)CO,SAR11_0271 Candidatus Pelagibacter sp.,differential scanning fluorimetry,,concentration not given,higher = stronger binding,ΔTm,8.32 °C
CN(C)CCCn1c(=O)c2cc(Br)c3c(=O)n(CCCN(C)C)c(=O)c4c5[nH]c6ccccc6[nH]c5c(c1=O)c2c34,human telomeric G-quadruplex,FRET melting,,"0.25 µM, K+ 100 mM",,ΔTm,3.5 ± 0.7 °C
O=c1cc(-c2ccc(O)cc2)oc2cc(O)cc(O)c12,bovine serum albumin,"methylglyoxal-mediated glycation, fluorescence",,concentration not given,,inhibition,73.66 ± 0.58%
COc1ccc(C2NC(C(=O)O)CC3c4ccccc4NC32)cc1CN1CCN(c2ccc(F)cc2)CC1 (stereo not drawn),NAADP receptor,"antagonist, fluo-3 fluorescence","Lytechinus pictus, egg homogenate","up to 6 µM, with: NAADP 30 to 50 nM",,NAADP-mediated Ca2+ release,inactive
C=CC[C@@H]1/C=C(\C)C[C@H](C)C[C@H](OC)[C@H]2O[C@@](O)(C(=O)C(=O)N3CCCC[C@H]3C(=O)O[C@H](/C(C)=C/[C@@H]3CC[C@@H](O)[C@H](OC)C3)[C@H](C)[C@@H](O)CC1=O)[C@H](C)C[C@@H]2OC,sodium-chloride cotransporter NCC,response to hydrochlorothiazide,"Wistar Kyoto rats, male","ip, 0.5 mg/kg/day, day 20, 6 h excretion, with: hydrochlorothiazide 25 mg/kg ip",,natriuretic response,decreased
C[C@H]1C[C@@H](N2C(=N)N[C@](C)(c3cccc(Nc4ccc(C5CC5)nc4)c3Cl)CC2=O)CCO1,neuronal sodium channel,"ion current, inhibitor, cell-based",,,,IC50,2.82 µM
CCn1c2ccccc2c2cc(NC(=O)CN3CCN(S(=O)(=O)c4ccc(OC)cc4)CC3)ccc21,NAADP receptor,"antagonist, fluo-3 fluorescence","Lytechinus pictus, egg homogenate","up to 6 µM, with: NAADP 30 to 50 nM",,NAADP-mediated Ca2+ release,inactive
O=C(O)CCCOc1cccc(CNC(=O)C#Cc2cn(Cc3ccc(C(=O)O)cc3)c(=O)[nH]c2=O)c1,MMP-9,"inhibitor, FRET",,10 µM,,remaining MMP-9 activity,107 ± 3%
Cc1cccc(C)c1NC(=O)CCCC(C)O (stereo not drawn),neuronal sodium channel,"sodium current, blocker, node voltage clamp",Rhinella marina,,,IC50,~2000 µM
Oc1ccccc1-c1n[nH]cc1-c1ccnc2ccccc12,POM1 (Candida albicans),"kinase binding, MIB/MS competition",Candida albicans lysate,10 µM,baseline: DMSO,log2 fold change,-0.55
O=C(/C=C(\O)C(=O)N1CCN(c2ccc(-n3cccc3)cc2)CC1)c1cc(Cc2cc(F)cc(F)c2)cn(Cc2ccccc2F)c1=O,"UGT1A1, UGT1A6, UGT1A9, UGT2B7 (human)","enzyme activity, competitive inhibitor",,with: 4-methylumbelliferone,,IC50,> 300 µM
O=C(Nc1ccc([C@H]2[C@@H](F)[C@@H](F)C[C@@H](F)[C@H]2F)cc1)c1cn[nH]c1,,,dog liver microsomes,1 µM,,hepatic clearance,7.3 mL/min/kg
CCCCCCCC(=O)OC[C@H](COP(=O)(O)O[C@@H]1[C@H](O)[C@H](O)[C@@H](OP(=O)(O)O)[C@H](OP(=O)(O)O)[C@H]1O)OC(=O)CCCCCCC,Kv7.2/Kv7.3(EEE) mutant channel,"channel open probability, activator, fitted PIP2 binding model",,model 1,baseline: channel without bound PIP2,efficacy factor E2,324
O=c1cc(-c2ccc(O)c(O)c2)oc2cc(O)cc(O)c12,bovine serum albumin,"methylglyoxal-mediated glycation, fluorescence",,concentration not given,,inhibition,96.3 ± 1.36%
c1coc(-c2n[nH]cc2-c2ccnc3ccccc23)c1,PBS2 (Candida albicans),"kinase binding, MIB/MS competition",Candida albicans lysate,10 µM,baseline: DMSO,log2 fold change,-0.23
Cc1ccc(-n2c(SCC(=O)N/N=C\c3cccc(Oc4ccccc4)c3)nnc2-c2ccc(Cl)cc2)cc1,NAADP receptor,"antagonist, fluo-3 fluorescence","Lytechinus pictus, egg homogenate","up to 6 µM, with: NAADP 30 to 50 nM",,NAADP-mediated Ca2+ release,inactive
CN(C)CCCNc1cc2c(=O)n(CCCN(C)C)c(=O)c3c4[nH]c5ccccc5[nH]c4c4c(=O)n(CCCN(C)C)c(=O)c1c4c23,human telomeric G-quadruplex,FRET melting,,"0.25 µM, K+ 100 mM",,ΔTm,0.5 ± 0.7 °C
NCc1ccccc1,AOC4 (dog),"substrate turnover, AOC4 oxidation",,"concentration not given, unit not given",baseline: DMSO control,enzyme activity,22.9 and 24.4 and 26.3 and 26.7 and 22.3 and 23.8 and 24.8 and 24.3
CC(C)NCC(O)c1ccc(O)c(O)c1 (stereo not drawn),β2 adrenergic receptor E122Q (human),PRESTO-Tango luciferase,HTLA cells,1 nM,,β-arrestin2 recruitment,106 RLU and 116 RLU and 172 RLU and 130 RLU and 84.7 RLU and 124 RLU
CC(C)(c1ccccc1)c1ccc(OC[C@@H](O)CN[C@H](Cc2ccccc2)c2nc(-c3ccccc3)no2)cc1,NAADP receptor,"antagonist, fluo-3 fluorescence","Lytechinus pictus, egg homogenate","up to 6 µM, with: NAADP 30 to 50 nM",,NAADP-mediated Ca2+ release,inactive
Cn1cc(-c2ccc(-c3cncc(Cl)c3N3CCC4(CCNC4=O)CC3)cc2)cn1,COLO 205,"microarray, measured: IFIT3",,"concentration not given, 2 h, gene set RIG-G",baseline: untreated cells,fold change in expression,1.52
NS(=O)(=O)c1cccc(-c2ccc(C3CCCCC3)cc2)c1,,liver microsome stability,cynomolgus liver microsomes,1 µM,,hepatic clearance,19 mL/min/kg
O=C(O)[C@@H](O)[C@@H](O)[C@H](O)[C@@H](O)C(=O)O,SAR11_0271 Candidatus Pelagibacter sp.,differential scanning fluorimetry,,concentration not given,higher = stronger binding,ΔTm,2.94 °C
CN(C)c1ccc2nc3ccc(=[N+](C)C)cc-3sc2c1,"GABAA receptor, human, γ2-containing",,HEK293 cells,,,maximal inhibition,74 to 96%
CN(C)CCCn1c(=O)c2cc(Br)c3c(=O)n(CCCN(C)C)c(=O)c4c5[nH]c6ccc([N+](=O)[O-])cc6[nH]c5c(c1=O)c2c34,human telomeric G-quadruplex,FRET melting,,"0.25 µM, K+ 100 mM",,ΔTm,2 ± 0.1 °C
O=C(COc1ccccc1-c1ccccc1)N1CCN(S(=O)(=O)c2ccc3c(c2)OCCO3)CC1,NAADP receptor,"antagonist, fluo-3 fluorescence","Lytechinus pictus, egg homogenate","up to 6 µM, with: NAADP 30 to 50 nM",,NAADP-mediated Ca2+ release,inactive

# Some of these lines once more:
SMILES,target or system,test,test system,conditions,scale,endpoint,value
NS(=O)(=O)c1cccc(-c2ccc(C3CCCCC3)cc2)c1,,liver microsome stability,cynomolgus liver microsomes,1 µM,,hepatic clearance,19 mL/min/kg
c1coc(-c2n[nH]cc2-c2ccnc3ccccc23)c1,PBS2 (Candida albicans),"kinase binding, MIB/MS competition",Candida albicans lysate,10 µM,baseline: DMSO,log2 fold change,-0.23
CC(C)(c1ccccc1)c1ccc(OC[C@@H](O)CN[C@H](Cc2ccccc2)c2nc(-c3ccccc3)no2)cc1,NAADP receptor,"antagonist, fluo-3 fluorescence","Lytechinus pictus, egg homogenate","up to 6 µM, with: NAADP 30 to 50 nM",,NAADP-mediated Ca2+ release,inactive
C[C@H]1C[C@@H](N2C(=N)N[C@](C)(c3cccc(Nc4ccc(C5CC5)nc4)c3Cl)CC2=O)CCO1,neuronal sodium channel,"ion current, inhibitor, cell-based",,,,IC50,2.82 µM
